Results collected from several papers.
Values joined by “and” are separate records of one study, mostly repeats; a detail may differ. ± marks the error that the study gave.
CASP10: Caspase-10 (CASP10, Homo sapiens, UniProt Q92851)
Chain of UniProt Q92851 (whole entry, looked up): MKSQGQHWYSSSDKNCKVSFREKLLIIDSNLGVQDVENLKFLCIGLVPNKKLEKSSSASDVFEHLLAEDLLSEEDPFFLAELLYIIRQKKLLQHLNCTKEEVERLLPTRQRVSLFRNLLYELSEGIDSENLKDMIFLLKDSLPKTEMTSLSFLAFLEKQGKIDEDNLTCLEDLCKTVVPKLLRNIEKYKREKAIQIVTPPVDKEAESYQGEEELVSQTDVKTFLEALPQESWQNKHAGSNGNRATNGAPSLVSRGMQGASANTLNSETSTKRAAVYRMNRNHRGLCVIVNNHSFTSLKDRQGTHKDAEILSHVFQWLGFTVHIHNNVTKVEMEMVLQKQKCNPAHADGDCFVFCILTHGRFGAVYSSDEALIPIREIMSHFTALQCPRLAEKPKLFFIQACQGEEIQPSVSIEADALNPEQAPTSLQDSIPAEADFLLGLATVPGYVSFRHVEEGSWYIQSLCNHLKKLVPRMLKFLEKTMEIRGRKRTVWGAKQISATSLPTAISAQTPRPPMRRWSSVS
CASP8: Caspase-8 (CASP8, Homo sapiens, UniProt Q14790)
Chain of UniProt Q14790 (whole entry, looked up): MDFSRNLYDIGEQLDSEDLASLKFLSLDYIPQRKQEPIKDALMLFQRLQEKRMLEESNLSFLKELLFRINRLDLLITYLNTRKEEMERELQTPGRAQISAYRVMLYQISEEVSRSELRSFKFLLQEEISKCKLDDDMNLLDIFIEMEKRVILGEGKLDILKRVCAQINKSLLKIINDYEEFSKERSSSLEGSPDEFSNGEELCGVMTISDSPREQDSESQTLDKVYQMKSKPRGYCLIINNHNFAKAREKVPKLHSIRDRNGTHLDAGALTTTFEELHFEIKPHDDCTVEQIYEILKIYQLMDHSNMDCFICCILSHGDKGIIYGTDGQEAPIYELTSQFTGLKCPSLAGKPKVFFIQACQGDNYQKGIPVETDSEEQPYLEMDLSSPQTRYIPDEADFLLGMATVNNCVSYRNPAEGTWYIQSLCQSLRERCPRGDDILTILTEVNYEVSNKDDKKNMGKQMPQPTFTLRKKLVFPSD
Chain of UniProt Q92633 (whole entry, unmodified, looked up): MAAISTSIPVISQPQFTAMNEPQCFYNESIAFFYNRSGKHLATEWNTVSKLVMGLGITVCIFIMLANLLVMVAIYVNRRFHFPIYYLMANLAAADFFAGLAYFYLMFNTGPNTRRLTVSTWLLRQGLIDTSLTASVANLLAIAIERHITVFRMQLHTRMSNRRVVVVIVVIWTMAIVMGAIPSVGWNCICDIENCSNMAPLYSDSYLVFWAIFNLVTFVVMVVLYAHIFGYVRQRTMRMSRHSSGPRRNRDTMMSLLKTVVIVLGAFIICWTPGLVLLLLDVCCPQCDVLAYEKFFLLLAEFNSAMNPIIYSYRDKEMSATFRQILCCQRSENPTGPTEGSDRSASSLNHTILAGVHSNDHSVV
Chain of UniProt P35821 (whole entry, looked up): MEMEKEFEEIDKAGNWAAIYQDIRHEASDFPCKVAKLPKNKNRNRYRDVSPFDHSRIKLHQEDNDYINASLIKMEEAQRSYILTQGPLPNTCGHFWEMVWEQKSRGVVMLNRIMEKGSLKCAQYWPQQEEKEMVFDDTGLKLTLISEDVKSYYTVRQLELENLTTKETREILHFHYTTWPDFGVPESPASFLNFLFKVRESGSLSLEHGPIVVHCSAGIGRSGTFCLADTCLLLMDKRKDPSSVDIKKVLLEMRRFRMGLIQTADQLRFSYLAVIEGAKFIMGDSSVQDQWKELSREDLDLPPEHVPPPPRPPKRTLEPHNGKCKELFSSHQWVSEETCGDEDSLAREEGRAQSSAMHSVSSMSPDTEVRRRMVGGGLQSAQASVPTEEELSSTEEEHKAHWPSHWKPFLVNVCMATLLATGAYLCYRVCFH
Chain of UniProt Q13148 (whole entry, looked up): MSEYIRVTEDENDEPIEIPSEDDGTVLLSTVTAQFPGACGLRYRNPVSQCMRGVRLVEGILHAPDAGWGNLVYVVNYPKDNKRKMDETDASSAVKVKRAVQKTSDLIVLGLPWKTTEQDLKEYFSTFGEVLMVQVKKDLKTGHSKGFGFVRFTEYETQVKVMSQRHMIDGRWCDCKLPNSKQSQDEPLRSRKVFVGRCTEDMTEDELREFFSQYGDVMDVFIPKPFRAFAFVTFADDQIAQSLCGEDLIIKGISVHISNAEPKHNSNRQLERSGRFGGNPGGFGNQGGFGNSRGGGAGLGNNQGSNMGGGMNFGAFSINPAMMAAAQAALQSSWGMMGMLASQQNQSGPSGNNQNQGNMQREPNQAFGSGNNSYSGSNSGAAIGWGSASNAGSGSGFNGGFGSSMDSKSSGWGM
Chain of UniProt Q92830 (whole entry, unmodified, looked up): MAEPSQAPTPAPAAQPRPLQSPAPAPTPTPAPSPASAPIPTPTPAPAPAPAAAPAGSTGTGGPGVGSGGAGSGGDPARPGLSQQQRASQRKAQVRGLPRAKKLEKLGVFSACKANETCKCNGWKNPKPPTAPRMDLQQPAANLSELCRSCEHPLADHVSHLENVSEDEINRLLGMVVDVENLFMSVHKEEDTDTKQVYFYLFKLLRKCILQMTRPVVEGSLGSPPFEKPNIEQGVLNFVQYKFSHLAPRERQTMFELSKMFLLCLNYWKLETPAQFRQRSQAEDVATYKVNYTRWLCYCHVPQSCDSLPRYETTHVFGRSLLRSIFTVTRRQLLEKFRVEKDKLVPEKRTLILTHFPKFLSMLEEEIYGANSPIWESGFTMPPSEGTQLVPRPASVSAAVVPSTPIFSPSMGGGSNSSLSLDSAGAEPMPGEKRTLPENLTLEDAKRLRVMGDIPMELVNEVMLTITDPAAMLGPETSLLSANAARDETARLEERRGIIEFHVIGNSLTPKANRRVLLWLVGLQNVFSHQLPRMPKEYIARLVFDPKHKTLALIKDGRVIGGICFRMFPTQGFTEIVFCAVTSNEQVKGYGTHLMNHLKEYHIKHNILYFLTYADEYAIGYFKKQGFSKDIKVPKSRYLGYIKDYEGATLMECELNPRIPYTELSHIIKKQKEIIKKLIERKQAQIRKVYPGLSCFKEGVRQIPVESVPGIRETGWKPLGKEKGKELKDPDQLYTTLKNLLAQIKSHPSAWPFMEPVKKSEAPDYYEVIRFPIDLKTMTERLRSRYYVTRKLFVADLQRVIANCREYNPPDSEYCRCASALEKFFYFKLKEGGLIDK
Chain of UniProt Q96C86 (whole entry, looked up): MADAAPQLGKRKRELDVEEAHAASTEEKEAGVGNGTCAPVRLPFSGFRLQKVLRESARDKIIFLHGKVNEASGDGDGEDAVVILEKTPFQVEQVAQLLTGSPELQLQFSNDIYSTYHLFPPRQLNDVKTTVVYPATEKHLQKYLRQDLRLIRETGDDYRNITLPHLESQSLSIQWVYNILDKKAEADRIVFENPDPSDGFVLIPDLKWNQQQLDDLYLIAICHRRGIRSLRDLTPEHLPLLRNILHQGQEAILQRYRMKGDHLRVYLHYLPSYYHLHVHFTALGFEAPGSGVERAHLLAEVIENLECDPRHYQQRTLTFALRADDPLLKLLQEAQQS
Chain of UniProt O43169 (whole entry, looked up): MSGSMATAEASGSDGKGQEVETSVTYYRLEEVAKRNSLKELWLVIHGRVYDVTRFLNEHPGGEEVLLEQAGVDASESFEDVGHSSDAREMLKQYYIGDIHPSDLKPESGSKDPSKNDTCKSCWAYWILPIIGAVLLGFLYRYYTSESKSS
Chain of UniProt P11387 (whole entry, looked up): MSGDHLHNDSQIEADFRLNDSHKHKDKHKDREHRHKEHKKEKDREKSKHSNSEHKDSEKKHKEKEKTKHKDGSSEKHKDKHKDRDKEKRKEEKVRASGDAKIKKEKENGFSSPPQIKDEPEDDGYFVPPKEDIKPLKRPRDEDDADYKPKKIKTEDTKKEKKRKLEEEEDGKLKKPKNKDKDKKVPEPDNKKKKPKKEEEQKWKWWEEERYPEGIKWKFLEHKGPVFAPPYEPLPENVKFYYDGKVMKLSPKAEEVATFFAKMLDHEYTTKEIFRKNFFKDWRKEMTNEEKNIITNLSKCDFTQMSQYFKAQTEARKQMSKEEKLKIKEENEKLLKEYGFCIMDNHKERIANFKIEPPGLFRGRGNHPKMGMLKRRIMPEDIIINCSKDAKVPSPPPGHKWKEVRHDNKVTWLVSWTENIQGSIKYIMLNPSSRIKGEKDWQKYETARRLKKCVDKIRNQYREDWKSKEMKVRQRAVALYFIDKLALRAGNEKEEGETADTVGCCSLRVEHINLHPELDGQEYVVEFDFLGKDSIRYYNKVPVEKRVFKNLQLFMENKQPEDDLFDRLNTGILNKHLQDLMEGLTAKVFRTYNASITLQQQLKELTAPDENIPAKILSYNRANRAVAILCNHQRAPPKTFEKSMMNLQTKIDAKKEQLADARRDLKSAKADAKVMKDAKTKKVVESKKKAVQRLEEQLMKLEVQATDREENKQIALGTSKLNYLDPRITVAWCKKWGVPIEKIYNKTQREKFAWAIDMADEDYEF
Chain of UniProt P14060 (whole entry, looked up): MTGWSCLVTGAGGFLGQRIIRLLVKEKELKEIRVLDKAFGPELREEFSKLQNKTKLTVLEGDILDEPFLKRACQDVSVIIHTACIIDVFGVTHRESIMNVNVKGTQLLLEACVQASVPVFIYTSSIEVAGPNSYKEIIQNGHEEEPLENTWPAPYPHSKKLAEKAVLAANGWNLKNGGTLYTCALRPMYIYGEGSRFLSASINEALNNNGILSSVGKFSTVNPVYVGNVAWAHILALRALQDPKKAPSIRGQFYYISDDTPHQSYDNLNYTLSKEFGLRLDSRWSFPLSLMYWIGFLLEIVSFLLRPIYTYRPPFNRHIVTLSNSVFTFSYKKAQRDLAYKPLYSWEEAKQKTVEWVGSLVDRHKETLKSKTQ
Chain of UniProt O75494 (whole entry, looked up): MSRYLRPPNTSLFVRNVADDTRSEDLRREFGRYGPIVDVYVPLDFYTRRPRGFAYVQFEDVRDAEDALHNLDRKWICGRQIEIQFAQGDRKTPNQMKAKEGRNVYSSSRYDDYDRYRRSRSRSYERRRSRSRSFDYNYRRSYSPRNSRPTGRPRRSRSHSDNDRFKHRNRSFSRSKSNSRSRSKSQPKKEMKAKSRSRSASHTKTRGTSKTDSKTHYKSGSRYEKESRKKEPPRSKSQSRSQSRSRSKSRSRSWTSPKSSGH

The kinact/KI of CCCC[C@H](NC(=O)[C@H](CC(=O)O)NC(C)=O)C(=O)N1[C@H](C(=O)N[C@@H](CC(=O)O)C(=O)COC(=O)c2c(C)cccc2C)C[C@@H]2CCCC[C@@H]21 is reported as 118000 M⁻¹ s⁻¹ (CASP10; enzyme activity, inhibitor).
For CC[C@H](C)[C@H](NC(=O)[C@@H](NC(=O)[C@H](CCCCN)NC(=O)[C@@H](N)[C@@H](C)O)C(C)C)C(=O)N[C@@H](CC(C)C)C(=O)N[C@@H](Cc1c[nH]cn1)C(N)=O, the ThT fluorescence was 133 ± 15% (MAPT (Homo sapiens, UniProt P10636); fibril formation, ThT fluorescence; 1-fold of tau, at plateau, with: wild-type tau 10 µM, heparin; reference: untreated).
CCCC[C@H](NC(C)=O)C(=O)N[C@@H](CCC(=O)O)C(=O)N[C@H](C(=O)N[C@@H](CC(=O)O)C(=O)COC(=O)c1c(C)cccc1C)[C@@H](C)O has a kinact/KI of 664000 M⁻¹ s⁻¹ (CASP8; enzyme activity, inhibitor).
CC1(C)C[C@@H](Nc2cccc(-c3sc(C(=O)O)c(OCC(=O)O)c3Cl)c2)CCN1S(=O)(=O)Cc1cccc(NC(=O)CN2CCC(c3ccc4c(c3)oc(=O)n4C3CCC(=O)NC3=O)CC2)c1 (stereo partly shown) has a remaining protein of 95.7% and 78.7% (Tyrosine-protein phosphatase non-receptor type 1 (Mus musculus, UniProt P35821); degrader, Western blot; B16-F10; 0.01 µM).
Under “probe labelling ratio”, CCCCCC(O)/C=C/C=O (stereo not shown) is recorded as 0.63 (Serine/arginine-rich splicing factor 10 (SRSF10, Homo sapiens, UniProt O75494); acylphosphate-ATP probe SILAC-ABPP, refers to: FUSIP1; ZAK-transfected HEK293T; 100 µM, with: acylphosphate-ATP probe; reference: DMSO over compound-treated).
The ΔS of Cc1cn(CC(=O)N(CCNC(=O)CN(CCNC(=O)CN(CCNC(=O)CN(CCNC(=O)CN(CCNC(=O)CN(CCNC(=O)CN(CCNC(=O)CN(CCN)C(=O)Cn2cnc3c(=O)[nH]c(N)nc32)C(=O)Cn2cnc3c(N)ncnc32)C(=O)Cn2cc(C)c(=O)[nH]c2=O)C(=O)Cn2cnc3c(=O)[nH]c(N)nc32)C(=O)Cn2cc(C)c(=O)[nH]c2=O)C(=O)Cn2cnc3c(=O)[nH]c(N)nc32)C(=O)Cn2cnc3c(N)ncnc32)CC(=O)NCCN(CC(=O)NCCOCCOCC(N)=O)C(=O)Cn2cnc3c(N)ncnc32)c(=O)[nH]c1=O is reported as -186 ± 6.2 cal/mol/K (complementary DNA; duplex formation, UV melting curve fit; PBS; 1 µM).
N#CN1CC[C@H](C(=O)Nc2nc3c(s2)CN(C(=O)Cn2cc(COCCOCCOCCOCCNC(=O)CCCC[C@@H]4SC[C@@H]5NC(=O)N[C@@H]54)nn2)CC3)C1 has an iBAQ abundance of 915000 (USP24 (Homo sapiens, UniProt Q9UPU5); probe binding, affinity probe, neutravidin pull-down LC-MS/MS; HEK293T, cell lysate; 5 µM, 1 h, mean of three replicates, unit not given; higher = more pulled down).
O=C1c2sc(-c3ccc(N4CCC(F)C4)nc3F)nc2CCN1c1cccnc1 (stereo not shown) gave a specific binding of 2.19 nM and 2.22 nM (TAR DNA-binding protein 43, aggregated (TARDBP, Homo sapiens, UniProt Q13148); radioligand binding; human, FTLD-TDP type B extract; with: radioligand 13.55 nM).
With CC(=O)N[C@H](C(=O)N[C@@H](CCC(N)=O)C(=O)N[C@@H](CO)C(=O)N[C@@H](CC(=O)O)C(=O)COC(=O)c1c(C)cccc1C)C(C)(C)C the kinact/KI was 1.43e+06 M⁻¹ s⁻¹ (CASP8; enzyme activity, inhibitor).
O=C(Cc1ccc(OCc2ccccc2)cc1)NC1(C(=O)O)CCN(C(=O)c2ccc(-c3cccc(Cl)c3)cc2)CC1 — result for “activity vs control”: 119% (MOK (Homo sapiens, UniProt Q9UQ07); enzyme activity, inhibitor; 10 µM).
CC(=O)N[C@H](CCc1ccccc1)C(=O)N[C@@H](CCC(=O)O)C(=O)N[C@@H](CCC(N)=O)C(=O)N[C@@H](CC(=O)O)C(=O)COC(=O)c1c(C)cccc1C gave a kinact/KI of 22700 M⁻¹ s⁻¹ (CASP10; enzyme activity, inhibitor).
With C[n+]1cn([C@@H]2O[C@H](COP(=O)(O)OP(=O)([O-])C(F)(F)P(=O)(O)O)[C@@H](O)[C@H]2O)c2nc(N)nc(O)c21 the hydrolysis was 4 ± 0.8% (DCPS (Homo sapiens, UniProt Q96C86); substrate, HPLC; concentration not given, 30 min).
N=C(N)NCCC[C@H](NC(=O)[C@@H]1CCCN1C(=O)[C@H](CCCNC(=N)N)NC(=O)[C@@H]1CCCN1C(=O)[C@H](CCCNC(=N)N)NC(=O)[C@@H]1CCCN1C(=O)[C@H](CCCNC(=N)N)NC(=O)[C@@H]1CCCN1C(=O)[C@H](CCCNC(=N)N)NC(=O)[C@@H]1CCCN1C(=O)[C@H](CCCNC(=N)N)NC(=O)[C@@H]1CCCN1C(=O)[C@H](CCCNC(=N)N)NC(=O)[C@@H]1CCCN1C(=O)[C@H](CCCNC(=N)N)NC(=O)[C@@H]1CCCN1C(=O)[C@H](CCCNC(=N)N)NC(=O)[C@@H]1CCCN1C(=O)[C@H](CCCNC(=N)N)NC(=O)[C@@H]1CCCN1C(=O)[C@H](CCCNC(=N)N)NC(=O)[C@@H]1CCCN1C(=O)[C@H](CCCNC(=N)N)NC(=O)[C@@H]1CCCN1C(=O)[C@H](CCCNC(=N)N)NC(=O)[C@@H]1CCCN1C(=O)[C@H](CCCNC(=N)N)NC(=O)[C@@H]1CCCN1C(=O)[C@H](CCCNC(=N)N)NC(=O)[C@@H]1CCCN1C(=O)[C@H](CCCNC(=N)N)NC(=O)[C@@H]1CCCN1C(=O)[C@H](CCCNC(=N)N)NC(=O)[C@@H]1CCCN1C(=O)[C@H](CCCNC(=N)N)NC(=O)[C@@H]1CCCN1C(=O)[C@H](CCCNC(=N)N)NC(=O)[C@@H]1CCCN1C(=O)[C@H](CCCNC(=N)N)NC(=O)[C@@H]1CCCN1C(=O)[C@H](CCCNC(=N)N)NC(=O)[C@@H]1CCCN1C(=O)[C@H](CCCNC(=N)N)NC(=O)[C@@H]1CCCN1C(=O)[C@H](CCCNC(=N)N)NC(=O)[C@@H]1CCCN1C(=O)[C@H](Cc1ccc(O)cc1)NC(=O)[C@H](CO)NC(=O)CN)C(=O)O — result for “radius of gyration”: 97.9 ± 6.08 Å (Nucleophosmin (NPM1, Homo sapiens, UniProt P06748); SANS Guinier analysis; 3 molar excess over NPM1, 25 °C).
CCn1cc(-c2cccc(C(F)(F)F)c2)c2sc(C(=N)NC3CCS(=O)(=O)CC3)cc2c1=O has a ΔTm of 0.6 °C (KAT2A (Homo sapiens, UniProt Q92830)).
CCCCCCCCCCCCCCCC(=O)NCCCC[C@H](NC(=O)[C@H](CCC(=O)O)NC(=O)[C@H](Cc1ccc(O)cc1)NC(=O)[C@H](CCC(=O)O)NC(=O)COCC(=O)NCCCOCCOCCOCCCNC(=O)[C@H](Cc1c[nH]c2ccccc12)NC(=O)[C@H](CCCCN)NC(=O)[C@H](C)NC(=O)[C@H](CCCCNC(=N)N)NC(=O)[C@H](CCC(N)=O)NC(=O)[C@H](Cc1c[nH]cn1)NC(=O)[C@H](CCSC)NC(=O)[C@H](CC(C)C)NC(=O)[C@H](CCC(N)=O)NC(=O)[C@@H](NC(=O)[C@H](CCC(=O)O)NC(=O)C(C)(C)NC(=O)[C@@H](NC(=O)C(C)(C)N)C(C)C)[C@@H](C)CC)C(=O)N[C@@H](CCC(=O)O)C(=O)N[C@@H](Cc1ccc(O)cc1)C(=O)N[C@@H](CCC(=O)O)C(N)=O — result for “cAMP luminescence AUC”: 4.4 a.u. (PTH1R (Homo sapiens, UniProt Q03431); agonist; Saos-2 with cAMP reporter; 31.6 pM, 30 min, ligand-on phase; higher = more cAMP).
CC(=O)N[C@@H](CO)C(=O)N[C@H](C(=O)N[C@@H](CCC(=O)O)C(=O)N[C@H](C(=O)N[C@@H](CC(=O)O)C(=O)COC(=O)c1c(C)cccc1C)C(C)C)C(C)(C)C has a kinact/KI of 758000 M⁻¹ s⁻¹ (CASP8; enzyme activity, inhibitor).
With C[Si]1(C[C@H](CN)CC(=O)O)CCCC1 the inhibition was -10% (SLC29A1 (Homo sapiens, UniProt Q99808); binding, radioligand binding; 70 µM, with: [3H]nitrobenzylthioinosine).
With CC(C)c1ccccc1-c1coc2cc(O)ccc2c1=O the DHEA metabolism was 0 (HSD3B1 (Homo sapiens, UniProt P14060); [3H]-DHEA conversion; LNCaP; 0.1 µM, normalized to protein, unit not given; reference: vehicle).
The Hill coefficient of C1=[N+]2CCC[N+]3=Cc4ccc5[n]4[Au-]23[n]2c1ccc2-c1nc2ccccc2nc1-5.F[P-](F)(F)(F)(F)F is reported as 1.4 (DNA topoisomerase 1 (TOP1, Homo sapiens, UniProt P11387)).
With CNC(=N)NCCC[C@H](NC(=O)[C@H](CC(C)C)NC(=O)NNC(=O)[C@H](Cc1ccccc1)NC(=O)[C@@H](NC(=O)[C@H](CC(N)=O)NC(=O)[C@@H]1C[C@@H](O)CN1C(=O)[C@@H](Cc1ccc(O)cc1)NC(C)=O)[C@@H](C)O)C(=O)N[C@@H](Cc1c[nH]c2ccccc12)C(N)=O the Emax was 95% (KiSS-1 receptor (KISS1R, Homo sapiens, UniProt Q969F8, H181A); inositol phosphate, agonist; HEK293).
Cc1cc(C)cc(COc2cc3c(cc2OCc2cc(C)cc(C)c2)C2CC(O)(Cc4cn(CCOCCOCCNC(=O)CCCCC5SCC6NC(=O)NC65)nn4)CC(C)N2CC3)c1 (stereo not shown) has an SILAC ratio of 2.83 (Cytochrome b5 type B (CYB5B, Homo sapiens, UniProt O43169); biotinylated probe pull-down, refers to: CYB5B; 10 µM probe; reference: heavy over light).
The fold change of CCN(CC)C(CO)c1cccc2c(C)c(C)oc12 (stereo not shown) is reported as 0.953 and 0.886 and 0.775 and 0.92 and 0.945 and 0.836 (LPAR1 (Homo sapiens, UniProt Q92633, W271A); G-protein dissociation, agonist, NanoBiT; HEK-293T; 10 µM, W271A mutant; reference: baseline luminescence).

Repeated from above:
N=C(N)NCCC[C@H](NC(=O)[C@@H]1CCCN1C(=O)[C@H](CCCNC(=N)N)NC(=O)[C@@H]1CCCN1C(=O)[C@H](CCCNC(=N)N)NC(=O)[C@@H]1CCCN1C(=O)[C@H](CCCNC(=N)N)NC(=O)[C@@H]1CCCN1C(=O)[C@H](CCCNC(=N)N)NC(=O)[C@@H]1CCCN1C(=O)[C@H](CCCNC(=N)N)NC(=O)[C@@H]1CCCN1C(=O)[C@H](CCCNC(=N)N)NC(=O)[C@@H]1CCCN1C(=O)[C@H](CCCNC(=N)N)NC(=O)[C@@H]1CCCN1C(=O)[C@H](CCCNC(=N)N)NC(=O)[C@@H]1CCCN1C(=O)[C@H](CCCNC(=N)N)NC(=O)[C@@H]1CCCN1C(=O)[C@H](CCCNC(=N)N)NC(=O)[C@@H]1CCCN1C(=O)[C@H](CCCNC(=N)N)NC(=O)[C@@H]1CCCN1C(=O)[C@H](CCCNC(=N)N)NC(=O)[C@@H]1CCCN1C(=O)[C@H](CCCNC(=N)N)NC(=O)[C@@H]1CCCN1C(=O)[C@H](CCCNC(=N)N)NC(=O)[C@@H]1CCCN1C(=O)[C@H](CCCNC(=N)N)NC(=O)[C@@H]1CCCN1C(=O)[C@H](CCCNC(=N)N)NC(=O)[C@@H]1CCCN1C(=O)[C@H](CCCNC(=N)N)NC(=O)[C@@H]1CCCN1C(=O)[C@H](CCCNC(=N)N)NC(=O)[C@@H]1CCCN1C(=O)[C@H](CCCNC(=N)N)NC(=O)[C@@H]1CCCN1C(=O)[C@H](CCCNC(=N)N)NC(=O)[C@@H]1CCCN1C(=O)[C@H](CCCNC(=N)N)NC(=O)[C@@H]1CCCN1C(=O)[C@H](CCCNC(=N)N)NC(=O)[C@@H]1CCCN1C(=O)[C@H](Cc1ccc(O)cc1)NC(=O)[C@H](CO)NC(=O)CN)C(=O)O — result for “radius of gyration”: 97.9 ± 6.08 Å (Nucleophosmin (NPM1, Homo sapiens, UniProt P06748); SANS Guinier analysis; 3 molar excess over NPM1, 25 °C).
O=C1c2sc(-c3ccc(N4CCC(F)C4)nc3F)nc2CCN1c1cccnc1 (stereo not shown) gave a specific binding of 2.19 nM and 2.22 nM (TAR DNA-binding protein 43, aggregated (TARDBP, Homo sapiens, UniProt Q13148); radioligand binding; human, FTLD-TDP type B extract; with: radioligand 13.55 nM).
With C[Si]1(C[C@H](CN)CC(=O)O)CCCC1 the inhibition was -10% (SLC29A1 (Homo sapiens, UniProt Q99808); binding, radioligand binding; 70 µM, with: [3H]nitrobenzylthioinosine).
The ΔS of Cc1cn(CC(=O)N(CCNC(=O)CN(CCNC(=O)CN(CCNC(=O)CN(CCNC(=O)CN(CCNC(=O)CN(CCNC(=O)CN(CCNC(=O)CN(CCN)C(=O)Cn2cnc3c(=O)[nH]c(N)nc32)C(=O)Cn2cnc3c(N)ncnc32)C(=O)Cn2cc(C)c(=O)[nH]c2=O)C(=O)Cn2cnc3c(=O)[nH]c(N)nc32)C(=O)Cn2cc(C)c(=O)[nH]c2=O)C(=O)Cn2cnc3c(=O)[nH]c(N)nc32)C(=O)Cn2cnc3c(N)ncnc32)CC(=O)NCCN(CC(=O)NCCOCCOCC(N)=O)C(=O)Cn2cnc3c(N)ncnc32)c(=O)[nH]c1=O is reported as -186 ± 6.2 cal/mol/K (complementary DNA; duplex formation, UV melting curve fit; PBS; 1 µM).
